Assay results pooled from the literature.
Compare with care: the assays were run in different laboratories. ± marks the error that the study gave. The star is where a group is joined.
Mode: substrate
Sequence of UniProt Q2CEE3 (whole entry, looked up): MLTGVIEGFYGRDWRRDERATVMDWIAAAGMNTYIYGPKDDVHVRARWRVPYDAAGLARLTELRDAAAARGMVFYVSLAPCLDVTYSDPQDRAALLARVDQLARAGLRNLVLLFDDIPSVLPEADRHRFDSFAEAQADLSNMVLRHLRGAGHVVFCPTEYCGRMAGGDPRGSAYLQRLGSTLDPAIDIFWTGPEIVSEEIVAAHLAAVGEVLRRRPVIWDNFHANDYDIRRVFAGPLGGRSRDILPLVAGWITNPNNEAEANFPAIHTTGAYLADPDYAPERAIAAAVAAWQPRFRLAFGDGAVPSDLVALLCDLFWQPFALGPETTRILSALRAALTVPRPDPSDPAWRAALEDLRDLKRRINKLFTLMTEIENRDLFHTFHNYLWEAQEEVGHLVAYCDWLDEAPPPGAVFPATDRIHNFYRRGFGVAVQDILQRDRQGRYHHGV
Sequence of UniProt P55210 (whole entry, looked up): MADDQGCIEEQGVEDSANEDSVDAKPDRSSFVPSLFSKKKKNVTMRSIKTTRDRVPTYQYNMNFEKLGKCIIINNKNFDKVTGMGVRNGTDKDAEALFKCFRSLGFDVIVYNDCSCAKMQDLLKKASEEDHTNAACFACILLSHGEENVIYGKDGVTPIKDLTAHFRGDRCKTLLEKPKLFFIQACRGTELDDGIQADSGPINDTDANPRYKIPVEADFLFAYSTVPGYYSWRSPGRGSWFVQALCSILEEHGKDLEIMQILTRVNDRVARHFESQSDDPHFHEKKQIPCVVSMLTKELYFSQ
Sequence of UniProt Q16549 (whole entry, looked up): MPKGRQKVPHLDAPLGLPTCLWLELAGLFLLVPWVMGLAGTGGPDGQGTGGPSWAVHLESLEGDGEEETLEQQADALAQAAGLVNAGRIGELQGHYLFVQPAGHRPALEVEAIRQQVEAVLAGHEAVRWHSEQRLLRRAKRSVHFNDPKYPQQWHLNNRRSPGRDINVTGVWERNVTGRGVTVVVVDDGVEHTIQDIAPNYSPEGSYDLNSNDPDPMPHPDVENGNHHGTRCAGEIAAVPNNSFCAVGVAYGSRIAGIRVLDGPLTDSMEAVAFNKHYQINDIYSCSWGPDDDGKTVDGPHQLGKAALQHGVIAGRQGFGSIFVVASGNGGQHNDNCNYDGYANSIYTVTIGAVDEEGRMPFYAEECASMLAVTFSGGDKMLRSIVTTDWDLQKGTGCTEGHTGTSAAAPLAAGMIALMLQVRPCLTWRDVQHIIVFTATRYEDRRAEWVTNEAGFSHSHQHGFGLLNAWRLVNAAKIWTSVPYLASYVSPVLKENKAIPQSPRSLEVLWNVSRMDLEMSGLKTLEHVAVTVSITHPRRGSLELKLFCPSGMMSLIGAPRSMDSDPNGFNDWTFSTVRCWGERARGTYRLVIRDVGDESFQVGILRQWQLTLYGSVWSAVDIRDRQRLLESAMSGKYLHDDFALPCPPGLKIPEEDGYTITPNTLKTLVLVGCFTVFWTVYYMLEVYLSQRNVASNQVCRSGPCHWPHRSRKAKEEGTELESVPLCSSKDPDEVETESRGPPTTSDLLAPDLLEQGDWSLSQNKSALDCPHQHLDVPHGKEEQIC
Sequence of UniProt K7WIZ6 (whole entry, looked up): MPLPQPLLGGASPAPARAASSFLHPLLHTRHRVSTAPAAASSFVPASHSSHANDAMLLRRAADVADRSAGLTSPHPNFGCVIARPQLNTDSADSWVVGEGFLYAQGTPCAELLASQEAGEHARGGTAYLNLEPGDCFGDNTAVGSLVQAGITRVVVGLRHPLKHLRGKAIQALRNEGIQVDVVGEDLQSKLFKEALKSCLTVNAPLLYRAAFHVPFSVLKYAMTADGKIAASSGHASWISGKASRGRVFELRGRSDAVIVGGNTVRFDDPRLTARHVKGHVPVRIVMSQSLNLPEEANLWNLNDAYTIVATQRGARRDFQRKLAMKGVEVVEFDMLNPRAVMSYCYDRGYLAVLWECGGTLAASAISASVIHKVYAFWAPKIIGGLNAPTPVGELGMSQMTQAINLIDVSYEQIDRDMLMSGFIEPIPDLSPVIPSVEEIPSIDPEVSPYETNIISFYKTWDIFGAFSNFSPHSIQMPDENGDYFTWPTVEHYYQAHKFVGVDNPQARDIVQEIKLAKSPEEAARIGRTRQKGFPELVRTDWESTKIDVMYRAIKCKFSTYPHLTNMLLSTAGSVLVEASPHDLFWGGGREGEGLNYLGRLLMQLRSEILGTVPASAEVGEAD
Sequence of UniProt P31570 (whole entry, looked up): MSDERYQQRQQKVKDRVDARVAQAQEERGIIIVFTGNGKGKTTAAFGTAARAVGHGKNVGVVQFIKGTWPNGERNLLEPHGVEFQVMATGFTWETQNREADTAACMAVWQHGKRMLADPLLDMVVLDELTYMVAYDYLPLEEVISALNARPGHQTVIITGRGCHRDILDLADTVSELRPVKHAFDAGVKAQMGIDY
Sequence of UniProt P08244 (whole entry, looked up): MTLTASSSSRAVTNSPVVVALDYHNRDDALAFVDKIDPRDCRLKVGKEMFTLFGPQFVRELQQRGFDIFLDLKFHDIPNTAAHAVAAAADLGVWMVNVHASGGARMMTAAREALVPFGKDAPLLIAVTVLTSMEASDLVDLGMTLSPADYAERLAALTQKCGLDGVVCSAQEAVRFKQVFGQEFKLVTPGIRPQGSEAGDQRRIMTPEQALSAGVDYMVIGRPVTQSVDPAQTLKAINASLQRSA

With Nc1c(N[C@@H]2O[C@H](COP(=O)(O)O)[C@@H](O)[C@H]2O)[nH]c(=O)[nH]c1=O (mixture of isomers) the Km was 1080 ± 110 µM (Riboflavin biosynthesis protein PYRR, chloroplastic, COG domain (PYRR, Zea mays, UniProt K7WIZ6); HPLC-UV; pH 8.0, 22 °C, with: 5 mM MgCl2).
With C=CC[S@+]([O-])C[C@H](N)C(=O)O the Km was 830 µM (alliinase (Cupriavidus necator); pH 7.0, with: 20 mM PLP).
`Ac-QDEVD-pNA (N-acetyl, C-pNA; pNA = O=[N+]([O-])c1ccc(N*)cc1)` gave a Km of 51 ± 3 µM (Caspase-7 (CASP7, Homo sapiens, UniProt P55210); substrate hydrolysis, colorimetric; pH 7.5).
`glycylsarcosine` gave a Km of 9300 µM (PepTSt Streptococcus thermophilus; proton-driven proteoliposome uptake; pH 6.5).
O=C(O)c1c(F)c(=O)[nH]c(=O)n1[C@@H]1O[C@H](COP(=O)(O)O)[C@@H](O)[C@H]1O has a Km of greater than 200 µM (Orotidine 5'-phosphate decarboxylase (pyrF, Escherichia coli, UniProt P08244); enzyme activity; pH 7.1, 25 °C; lower limit).
For C/C1=C2/N[C@H]([C@H](CC(N)=O)[C@@]2(C)CCC(=O)NC[C@@H](C)OP(=O)(O)O[C@H]2[C@@H](O)[C@@H](n3cnc4cc(C)c(C)cc43)O[C@@H]2CO)[C@]2(C)N=C(/C(C)=C3N=C(/C=C4N=C1[C@@H](CCC(N)=O)C\4(C)C)[C@@H](CCC(N)=O)[C@]\3(C)CC(N)=O)[C@@H](CCC(N)=O)[C@]2(C)CC(N)=O.[Co], the Km was 4 ± 1 µM (Corrinoid adenosyltransferase CobA (btuR, Salmonella typhimurium, UniProt P31570); pH 8, 37 °C, with: ATP).
For Nc1ncnc2c1ncn2[C@@H]1O[C@H](COP(=O)(O)OP(=O)(O)OP(=O)(O)O)[C@@H](O)[C@H]1O, the Km was 75 ± 2 µM (hexokinase (Saccharomyces cerevisiae); ADP generation; pH 7.5, 20 °C, with: D-glucose 2 mM).
With Cc1cc(=O)oc2cc(NC(=O)[C@H](CCCNC(=N)N)NC(=O)[C@H](CCCNC(=N)N)NC(=O)[C@@H](NC(=O)[C@H](CCCNC(=N)N)NC(=O)OC(C)(C)C)C(C)C)ccc12 the Km was 27 ± 3 µM (Proprotein convertase subtilisin/kexin type 7 (Homo sapiens, UniProt Q16549); fluorogenic; pH 7.5, 25 °C, with: Boc-RVRR-AMC).
For CC(=O)N[C@H]1[C@H](Oc2ccc3c(C)cc(=O)oc3c2)O[C@H](CO)[C@@H](O)[C@@H]1O, the Km was 2900 ± 200 µM (Protein O-GlcNAcase (Oceanicola granulosus, UniProt Q2CEE3); fluorimetric; pH 7.5, 37 °C).
CCCCCCCCCCCCCCCC(=O)Oc1ccc([N+](=O)[O-])cc1 has a Km of 4340 µM (lipase Bacillus amyloliquefaciens; pH 7, 30 °C).
With CCOc1ccc2nc3ccc(=O)cc-3oc2c1 the Km was 7.89 ± 3.66 µM (rat CYP1A; O-deethylation; liver microsomes; 15 min, 37 °C, 3-week-old control rats).
For OO, the Km was 4180 µM (ancestral DyP peroxidase R390A; peroxidase activity; pH 3.0, 25 °C, with: ABTS 50 µM).
